Published values of several laboratories.
Protocols differ between the studies behind these lines. ± marks the error that the study gave.
gag-pol integrase: Gag-Pol polyprotein, integrase (gag-pol, Human immunodeficiency virus type 1 group M subtype B, UniProt P04585)

CC[C@H](C)[C@H](N)C(=O)N[C@@H](CC(N)=O)C(=O)N[C@@H](CC(N)=O)C(=O)N[C@H](C(=O)N1C[C@@H](n2cc([C]34[CH]5[CH]6[CH]7[CH]3[Fe]6754389%10[CH]4[CH]3[CH]8[CH]9[CH]4%10)nn2)C[C@H]1C(=O)N[C@@H](Cc1ccc(O)cc1)C(N)=O)[C@@H](C)CC (stereo partly shown) — IC50 (Envelope glycoprotein gp160, gp120 (env, Human immunodeficiency virus type 1 group M subtype B, UniProt P35961, I108A); binding to soluble CD4, inhibitor, competition SPR; gp120 I109A mutant): 3.1 ± 0.3 µM
C[C@H](NC(=O)[C@H](C)NC(=O)[C@@H]1CCCN1C(=O)[C@@H](N)Cc1ccc(O)cc1)C(=O)N[C@@H](CO)C(=O)N[C@@H](Cc1ccc(O)cc1)C(=O)N[C@@H](CCCNC(=N)N)C(=O)O — IC50 (Protein Rev (Human immunodeficiency virus type 1 group M subtype B, UniProt P04618); ligand displacement, FP): 0.179 µM
NC(=O)[C@H](CO)NC(=O)[C@@H]1CCCN1C(=O)[C@H](Cc1ccc(O)cc1)NC(=O)CNC(=O)[C@H](Cc1ccccc1)NC(=O)[C@@H](CCCCNC(=O)CBr)NC(=O)[C@@H](N)Cc1ccc(O)cc1 — IC50 (Delta-type opioid receptor (Oprd1, Mus musculus, UniProt P32300); radioligand binding; CHO cells; with: 0.15 nM [3H]DPDPE): 0.382 ± 0.022 µM
CC[C@H](C)[C@@H]1NC(=O)[C@@H](NC(=O)[C@H](CO)NC(=O)[C@@H](N)CCCNC(=N)N)CSSC[C@@H](C(N)=O)NC(=O)[C@H]([C@@H](C)O)NC(=O)CNC(=O)[C@@H]2CSSC[C@@H]3NC(=O)[C@H](CCC(N)=O)NC(=O)[C@H](Cc4ccccc4)NC(=O)[C@H](C)NC(=O)[C@H]([C@@H](C)O)NC(=O)[C@H](CSSC[C@H](NC(=O)[C@H](Cc4ccccc4)NC(=O)[C@H](CO)NC(=O)[C@H](CC(C)C)NC(=O)[C@H](CCCNC(=N)N)NC(=O)[C@H](Cc4ccc(O)cc4)NC(=O)[C@H](CCCCN)NC(=O)[C@H](CCSC)NC(=O)[C@H](CO)NC(=O)[C@H](Cc4c[nH]cn4)NC(=O)[C@H](CCCCN)NC3=O)C(=O)N[C@@H](CCCNC(=N)N)C(=O)N[C@@H](CCCCN)C(=O)N[C@@H]([C@@H](C)O)C(=O)N2)NC(=O)[C@H](CCCNC(=N)N)NC(=O)[C@H](CO)NC(=O)[C@H](CCCCN)NC(=O)[C@@H]2CCCN2C(=O)[C@H]([C@@H](C)CC)NC(=O)[C@H]([C@@H](C)O)NC(=O)[C@H](CC(=O)O)NC1=O — IC50 (Potassium voltage-gated channel subfamily A member 3 (Kcna3, Mus musculus, UniProt P16390); ion current, inhibitor, patch clamp): 3.5e-05 µM
CC(C)C[C@H](NC(=O)[C@H](Cc1ccccc1)NC(=O)[C@H](Cc1ccc(O)cc1)NC(=O)[C@H](C)NC(=O)[C@@H](N)[C@@H](C)O)C(=O)N[C@@H](CC(C)C)C(=O)N[C@@]1(C)CCCC=CCCC[C@@](C)(C(=O)N[C@@H](Cc2c[nH]c3ccccc23)C(N)=O)NC(=O)CNC(=O)[C@H](C)NC(=O)[C@H](CC(C)C)NC1=O — IC50 (gag-pol integrase; integrase 3'-processing, inhibitor): > 100 µM
CC[C@H](C)[C@H](NC(=O)[C@H](C)NC(=O)[C@H](CO)NC(=O)[C@H](CC(C)C)NC(=O)[C@H](Cc1ccc(O)cc1)NC(=O)[C@@H](NC(=O)[C@H](CC(=O)O)NC(=O)[C@H](CO)NC(=O)[C@H](CCC(N)=O)NC(=O)[C@H](C)NC(=O)[C@H](CC(C)C)NC(=O)[C@H](Cc1c[nH]cn1)NC(=O)[C@H](CCC(N)=O)NC(=O)[C@H](CC(C)C)NC(=O)[C@H](C)NC(=O)[C@H](CC(=O)O)NC(=O)[C@H](CO)NC(=O)[C@H](CC(C)C)NC(=O)[C@H](CO)NC(=O)[C@H](CCCCN)NC(=O)[C@H](CC(N)=O)NC(=O)[C@@H](NC(=O)[C@H](C)NC(=O)[C@H](C)NC(=O)[C@H](CC(C)C)NC(=O)[C@H](CC(N)=O)NC(=O)[C@H](CCC(N)=O)NC(=O)[C@H](CO)NC(=O)[C@H](Cc1c[nH]c2ccccc12)NC(=O)[C@H](CC(=O)O)NC(=O)[C@H](CC(C)C)NC(=O)[C@@H]1CCCN1C(=O)[C@H](CC(=O)O)NC(=O)[C@@H](NC(=O)[C@H](CO)NC(=O)[C@H](CC(C)C)NC(=O)[C@@H](NC(=O)[C@H](CCC(N)=O)NC(=O)[C@H](CO)NC(=O)[C@H](CO)NC(=O)[C@H](CCC(=O)O)NC(=O)[C@H](CC(C)C)NC(=O)[C@@H](N)CCCCN)[C@@H](C)CC)[C@@H](C)CC)C(C)C)[C@@H](C)O)C(=O)O — IC50 (Fusion glycoprotein F0, fusion protein (F, Parainfluenza virus 5, UniProt P04849); cell-cell fusion, inhibitor, luciferase reporter; Vero plus BSR-T7 cells; 6 h, 37 °C, with: SV5 F and HN): 0.146 ± 0.013 µM
CC[C@H](C)[C@@H]1NC(=O)[C@H](C)NC(=O)[C@@H](NC(C)=O)CCCC=CCCC[C@@H](C(=O)N[C@H](C(=O)N[C@@H](CC(C)C)C(=O)N[C@@H](CCC(N)=O)C(=O)N[C@@H](CCC(N)=O)C(=O)N[C@@H](CC(C)C)C(=O)N[C@@H](CC(C)C)C(=O)N[C@@H](Cc2ccccc2)C(=O)N[C@H](C(=O)N[C@@H](Cc2c[nH]cn2)C(=O)N[C@@H](Cc2ccccc2)C(=O)N[C@@H](CCCNC(=N)N)C(=O)N[C@H](C(=O)NCC(N)=O)[C@@H](C)CC)[C@@H](C)CC)[C@@H](C)CC)NC(=O)[C@H]([C@@H](C)CC)NC1=O — IC50 (gag-pol integrase; strand transfer, inhibitor; HIV-1): 3.8 ± 0.7 µM
CNCc1ccc2c(c1)N(C(=O)OCc1c(F)c(F)c(F)c(F)c1F)[C@H](CNC(=N)N)[C@H]2NC(=O)C(=O)Nc1ccc(Cl)c(F)c1 — IC50 (env (Human immunodeficiency virus 1, UniProt Q202J8); pseudovirus infection, luciferase reporter; TZM-bl; 48 h): 10.6 µM
C=CCCC[C@](C)(NC(=O)CNC(=O)[C@H](C)NC(=O)[C@H](CC(C)C)NC(=O)[C@](C)(CCCC=C)NC(=O)[C@H](CC(C)C)NC(=O)[C@H](CC(C)C)NC(=O)[C@H](Cc1ccccc1)NC(=O)[C@H](Cc1ccc(O)cc1)NC(=O)[C@H](C)NC(=O)[C@@H](N)[C@@H](C)O)C(=O)N[C@@H](Cc1c[nH]c2ccccc12)C(N)=O — IC50 (gag-pol integrase; integrase strand transfer, inhibitor): > 100 µM
CC[C@H](C)[C@H](NC(=O)[C@H](C)NC(=O)[C@H](CCC(=O)O)NC(C)=O)C(=O)N[C@H](C(=O)N[C@@H](CCCNC(=N)N)C(=O)N[C@H](C(=O)N[C@H]1CCCC=CCCC[C@@H](C(=O)N[C@@H](Cc2ccccc2)C(=O)N[C@H](C(=O)N[C@@H](Cc2c[nH]cn2)C(=O)N[C@@H](Cc2ccccc2)C(=O)N[C@@H](CCCNC(=N)N)C(=O)N[C@H](C(=O)NCC(N)=O)[C@@H](C)CC)[C@@H](C)CC)NC(=O)[C@H](CC(C)C)NC(=O)[C@H](CCC(N)=O)NC(=O)[C@H](CCC(N)=O)NC1=O)[C@@H](C)CC)[C@@H](C)CC — IC50 (gag-pol integrase; 3′-end processing, inhibitor; HIV-1): 4.9 ± 0.6 µM

Repeated from above:
C=CCCC[C@](C)(NC(=O)CNC(=O)[C@H](C)NC(=O)[C@H](CC(C)C)NC(=O)[C@](C)(CCCC=C)NC(=O)[C@H](CC(C)C)NC(=O)[C@H](CC(C)C)NC(=O)[C@H](Cc1ccccc1)NC(=O)[C@H](Cc1ccc(O)cc1)NC(=O)[C@H](C)NC(=O)[C@@H](N)[C@@H](C)O)C(=O)N[C@@H](Cc1c[nH]c2ccccc12)C(N)=O — IC50 (gag-pol integrase; integrase strand transfer, inhibitor): > 100 µM
CC[C@H](C)[C@H](NC(=O)[C@H](C)NC(=O)[C@H](CCC(=O)O)NC(C)=O)C(=O)N[C@H](C(=O)N[C@@H](CCCNC(=N)N)C(=O)N[C@H](C(=O)N[C@H]1CCCC=CCCC[C@@H](C(=O)N[C@@H](Cc2ccccc2)C(=O)N[C@H](C(=O)N[C@@H](Cc2c[nH]cn2)C(=O)N[C@@H](Cc2ccccc2)C(=O)N[C@@H](CCCNC(=N)N)C(=O)N[C@H](C(=O)NCC(N)=O)[C@@H](C)CC)[C@@H](C)CC)NC(=O)[C@H](CC(C)C)NC(=O)[C@H](CCC(N)=O)NC(=O)[C@H](CCC(N)=O)NC1=O)[C@@H](C)CC)[C@@H](C)CC — IC50 (gag-pol integrase; 3′-end processing, inhibitor; HIV-1): 4.9 ± 0.6 µM
